Measurements of several laboratories.
A part holds a random share of what one study measured.
UniProt P30291, sequence (whole entry, looked up): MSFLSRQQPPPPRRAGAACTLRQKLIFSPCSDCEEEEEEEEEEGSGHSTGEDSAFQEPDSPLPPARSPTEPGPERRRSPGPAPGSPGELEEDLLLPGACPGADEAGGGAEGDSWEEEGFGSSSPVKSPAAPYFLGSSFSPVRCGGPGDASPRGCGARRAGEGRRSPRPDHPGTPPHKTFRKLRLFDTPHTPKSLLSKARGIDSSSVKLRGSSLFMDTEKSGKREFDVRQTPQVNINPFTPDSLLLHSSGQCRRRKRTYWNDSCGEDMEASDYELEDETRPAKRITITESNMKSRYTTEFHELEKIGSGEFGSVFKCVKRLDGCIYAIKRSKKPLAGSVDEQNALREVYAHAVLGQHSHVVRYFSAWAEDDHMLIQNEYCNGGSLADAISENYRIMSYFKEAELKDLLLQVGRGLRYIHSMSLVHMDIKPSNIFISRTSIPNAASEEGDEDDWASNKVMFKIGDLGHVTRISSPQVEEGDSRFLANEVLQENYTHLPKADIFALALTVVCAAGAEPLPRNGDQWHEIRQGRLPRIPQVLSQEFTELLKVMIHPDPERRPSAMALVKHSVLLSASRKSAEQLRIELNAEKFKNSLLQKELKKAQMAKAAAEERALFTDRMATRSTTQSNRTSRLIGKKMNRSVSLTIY
UniProt Q13233, sequence (whole entry, looked up): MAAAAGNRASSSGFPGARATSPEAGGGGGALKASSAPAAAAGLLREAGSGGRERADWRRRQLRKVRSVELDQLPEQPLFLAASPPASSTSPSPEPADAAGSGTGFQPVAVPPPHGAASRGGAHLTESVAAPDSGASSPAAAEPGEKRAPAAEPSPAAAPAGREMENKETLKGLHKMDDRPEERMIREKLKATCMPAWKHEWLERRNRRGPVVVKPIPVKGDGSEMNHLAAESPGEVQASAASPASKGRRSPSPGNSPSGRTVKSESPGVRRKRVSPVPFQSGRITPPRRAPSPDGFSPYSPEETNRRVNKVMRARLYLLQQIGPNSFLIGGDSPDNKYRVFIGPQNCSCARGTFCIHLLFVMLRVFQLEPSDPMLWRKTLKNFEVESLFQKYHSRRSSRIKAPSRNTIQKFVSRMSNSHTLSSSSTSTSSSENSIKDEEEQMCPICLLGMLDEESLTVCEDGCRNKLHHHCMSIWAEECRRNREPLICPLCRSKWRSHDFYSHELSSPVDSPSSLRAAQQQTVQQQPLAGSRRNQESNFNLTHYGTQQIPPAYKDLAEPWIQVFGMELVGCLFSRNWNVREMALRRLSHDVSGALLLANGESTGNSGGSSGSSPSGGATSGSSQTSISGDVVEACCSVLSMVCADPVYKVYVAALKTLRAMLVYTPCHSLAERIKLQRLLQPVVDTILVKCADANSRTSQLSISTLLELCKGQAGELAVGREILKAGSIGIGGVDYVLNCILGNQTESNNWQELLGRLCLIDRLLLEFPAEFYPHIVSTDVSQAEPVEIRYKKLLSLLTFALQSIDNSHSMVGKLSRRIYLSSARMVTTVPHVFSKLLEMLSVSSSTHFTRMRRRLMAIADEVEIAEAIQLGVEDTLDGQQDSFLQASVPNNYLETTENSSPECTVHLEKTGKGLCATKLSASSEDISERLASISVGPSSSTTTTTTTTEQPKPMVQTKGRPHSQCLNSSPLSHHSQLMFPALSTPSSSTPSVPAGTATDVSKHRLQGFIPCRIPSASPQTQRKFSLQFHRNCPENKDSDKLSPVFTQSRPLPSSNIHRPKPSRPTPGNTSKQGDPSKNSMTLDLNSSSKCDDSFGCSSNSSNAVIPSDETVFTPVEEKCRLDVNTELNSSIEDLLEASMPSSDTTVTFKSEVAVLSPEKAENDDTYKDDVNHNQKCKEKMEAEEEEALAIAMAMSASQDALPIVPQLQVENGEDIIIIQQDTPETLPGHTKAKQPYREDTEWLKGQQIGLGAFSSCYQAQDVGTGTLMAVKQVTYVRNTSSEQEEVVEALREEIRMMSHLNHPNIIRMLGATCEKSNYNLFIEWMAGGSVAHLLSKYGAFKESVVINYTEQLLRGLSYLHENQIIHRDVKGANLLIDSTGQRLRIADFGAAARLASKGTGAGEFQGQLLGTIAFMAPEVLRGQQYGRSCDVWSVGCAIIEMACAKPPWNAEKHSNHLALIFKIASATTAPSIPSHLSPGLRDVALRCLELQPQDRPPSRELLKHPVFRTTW
UniProt P33981, sequence (whole entry, looked up): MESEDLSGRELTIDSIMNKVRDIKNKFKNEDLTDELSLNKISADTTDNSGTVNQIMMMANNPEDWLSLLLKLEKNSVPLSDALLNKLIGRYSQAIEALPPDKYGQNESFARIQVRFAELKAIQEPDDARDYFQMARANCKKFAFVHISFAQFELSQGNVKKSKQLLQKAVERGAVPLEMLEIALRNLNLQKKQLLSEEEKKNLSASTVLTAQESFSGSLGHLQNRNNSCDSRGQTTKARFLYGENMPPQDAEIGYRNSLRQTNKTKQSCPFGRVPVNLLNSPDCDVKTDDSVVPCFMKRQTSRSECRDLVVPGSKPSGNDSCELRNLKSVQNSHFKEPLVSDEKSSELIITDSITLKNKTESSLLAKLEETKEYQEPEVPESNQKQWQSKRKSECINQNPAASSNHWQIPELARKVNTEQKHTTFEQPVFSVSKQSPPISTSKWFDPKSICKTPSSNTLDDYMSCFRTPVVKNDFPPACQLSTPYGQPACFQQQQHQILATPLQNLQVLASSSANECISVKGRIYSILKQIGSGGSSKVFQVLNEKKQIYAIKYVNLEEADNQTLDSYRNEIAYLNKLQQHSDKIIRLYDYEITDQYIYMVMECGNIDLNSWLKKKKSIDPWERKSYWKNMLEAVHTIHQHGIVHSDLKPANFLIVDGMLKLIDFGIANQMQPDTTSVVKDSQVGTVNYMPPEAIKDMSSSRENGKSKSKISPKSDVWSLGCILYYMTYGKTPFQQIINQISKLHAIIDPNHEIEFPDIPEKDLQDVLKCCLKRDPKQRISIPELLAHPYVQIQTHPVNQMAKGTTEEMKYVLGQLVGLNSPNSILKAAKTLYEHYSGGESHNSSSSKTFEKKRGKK
UniProt P11362, sequence (whole entry, looked up): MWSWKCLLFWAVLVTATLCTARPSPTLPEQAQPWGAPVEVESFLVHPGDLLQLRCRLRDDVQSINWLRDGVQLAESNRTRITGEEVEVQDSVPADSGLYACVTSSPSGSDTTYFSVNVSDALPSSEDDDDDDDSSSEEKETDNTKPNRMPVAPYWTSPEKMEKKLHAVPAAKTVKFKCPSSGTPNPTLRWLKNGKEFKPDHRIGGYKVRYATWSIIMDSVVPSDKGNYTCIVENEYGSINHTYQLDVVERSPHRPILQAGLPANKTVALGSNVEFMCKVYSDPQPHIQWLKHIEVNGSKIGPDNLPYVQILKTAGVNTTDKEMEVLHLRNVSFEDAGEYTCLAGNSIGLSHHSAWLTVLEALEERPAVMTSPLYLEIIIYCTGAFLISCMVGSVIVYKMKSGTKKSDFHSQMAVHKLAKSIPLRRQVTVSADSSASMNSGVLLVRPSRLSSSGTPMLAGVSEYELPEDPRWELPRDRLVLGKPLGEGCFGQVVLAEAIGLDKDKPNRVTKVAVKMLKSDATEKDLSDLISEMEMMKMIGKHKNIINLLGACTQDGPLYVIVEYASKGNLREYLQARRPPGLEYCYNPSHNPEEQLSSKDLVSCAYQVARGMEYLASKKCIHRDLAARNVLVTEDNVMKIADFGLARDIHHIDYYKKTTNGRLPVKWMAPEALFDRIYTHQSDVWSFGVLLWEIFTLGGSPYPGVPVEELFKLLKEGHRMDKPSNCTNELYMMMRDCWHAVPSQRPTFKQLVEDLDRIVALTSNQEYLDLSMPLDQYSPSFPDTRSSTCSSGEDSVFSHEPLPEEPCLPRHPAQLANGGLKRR
UniProt Q15831, sequence (whole entry, looked up): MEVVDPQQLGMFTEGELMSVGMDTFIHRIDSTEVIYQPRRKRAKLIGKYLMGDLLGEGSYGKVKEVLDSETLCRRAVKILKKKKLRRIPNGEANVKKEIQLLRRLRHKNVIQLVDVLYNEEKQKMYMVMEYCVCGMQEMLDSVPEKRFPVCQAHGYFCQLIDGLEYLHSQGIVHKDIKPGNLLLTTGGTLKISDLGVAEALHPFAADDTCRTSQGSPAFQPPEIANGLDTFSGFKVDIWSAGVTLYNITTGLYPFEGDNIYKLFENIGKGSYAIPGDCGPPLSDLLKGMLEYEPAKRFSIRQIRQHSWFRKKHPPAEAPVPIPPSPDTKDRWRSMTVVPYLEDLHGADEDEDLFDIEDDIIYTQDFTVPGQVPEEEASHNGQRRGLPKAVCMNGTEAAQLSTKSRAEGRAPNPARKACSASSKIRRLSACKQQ

Study 1
SMILES: CN([C@@H]1CCc2c(CC(=O)O)c3cc(S(C)(=O)=O)ccc3n2C1)S(=O)(=O)c1ccc(F)cc1
Tested at: 1 µM
| target | assay | remaining binding |
| --- | --- | --- |
| Aurora kinase C (AURKC, Homo sapiens, UniProt Q9UQB9) | cell-free assay, competition with immobilised ligand | 78% |
| Epidermal growth factor receptor (EGFR, Homo sapiens, UniProt P00533, del747-750/T751S) | cell-free assay, competition with immobilised ligand | 100% |
| Serine/threonine-protein kinase haspin (HASPIN, Homo sapiens, UniProt Q8TF76) | cell-free assay, competition with immobilised ligand | 83% |
| Phosphatidylinositol 4,5-bisphosphate 3-kinase catalytic subunit alpha isoform (PIK3CA, Homo sapiens, UniProt P42336, E542K) | cell-free assay, competition with immobilised ligand | 88% |
| Serine/threonine-protein kinase 10 (STK10, Homo sapiens, UniProt O94804) | cell-free assay, competition with immobilised ligand | 100% |
| Fibroblast growth factor receptor 1 (FGFR1, Homo sapiens, UniProt P11362) | cell-free assay, competition with immobilised ligand | 100% |
| Wee1-like protein kinase (WEE1, Homo sapiens, UniProt P30291) | cell-free assay, competition with immobilised ligand | 100% |
| Ribosomal protein S6 kinase alpha-2, N-terminal kinase domain (RPS6KA2, Homo sapiens, UniProt Q15349) | cell-free assay, competition with immobilised ligand | 99% |
| Myotonin-protein kinase (DMPK, Homo sapiens, UniProt Q09013) | cell-free assay, competition with immobilised ligand | 100% |
| Serine/threonine-protein kinase STK11 (STK11, Homo sapiens, UniProt Q15831) | cell-free assay, competition with immobilised ligand | 69% |
| Serine/threonine-protein kinase D3 (PRKD3, Homo sapiens, UniProt O94806) | cell-free assay, competition with immobilised ligand | 100% |
| Mitogen-activated protein kinase kinase kinase 1 (MAP3K1, Homo sapiens, UniProt Q13233) | cell-free assay, competition with immobilised ligand | 66% |
| Epidermal growth factor receptor (EGFR, Homo sapiens, UniProt P00533, del746-750) | cell-free assay, competition with immobilised ligand | 82% |
| Serine/threonine-protein kinase PLK1 (PLK1, Homo sapiens, UniProt P53350) | cell-free assay, competition with immobilised ligand | 93% |
| Dual specificity tyrosine-phosphorylation-regulated kinase 1B (DYRK1B, Homo sapiens, UniProt Q9Y463) | cell-free assay, competition with immobilised ligand | 36% |
| AP2-associated protein kinase 1 (AAK1, Homo sapiens, UniProt Q2M2I8) | binding | 100% |
| Epidermal growth factor receptor (EGFR, Homo sapiens, UniProt P00533, T790M) | cell-free assay, competition with immobilised ligand | 100% |
| Dual specificity protein kinase TTK (TTK, Homo sapiens, UniProt P33981) | cell-free assay, competition with immobilised ligand | 100% |

Study 2
Organism: Plasmodium berghei
Action: inhibitor
Cell line: Huh-7
Strain: GFP-expressing, liver stage
Tested at: 10 µM
Time: 24 h
Relative to: untreated control
| SMILES | infection rate [%] |
| --- | --- |
| CCC(C)(C)C(=O)O[C@H]1C[C@@H](C)C=C2C=C[C@H](C)[C@H](CC[C@@H]3C[C@@H](O)CC(=O)O3)[C@H]21 | 55.5 |
| NC(=O)C1(N2CCCCC2)CCN(CCCC(=O)c2ccc(F)cc2)CC1 | 96.4 |
| O=C(O)c1ccccc1C(=O)Nc1ccc(S(=O)(=O)Nc2nccs2)cc1 | 23.9 |
| CC(=O)NS(=O)(=O)c1ccc(N)cc1 | 99.4 |
| NC(N)=O | 107 |
| CCc1nc(N)nc(N)c1-c1ccc(Cl)cc1 | 90 |
| CCCN1C[C@H](CSC)C[C@@H]2c3cccc4[nH]cc(c34)C[C@H]21 | 102 |

Study 3
Target: High affinity nerve growth factor receptor (NTRK1, Homo sapiens, UniProt P04629)
UniProt P04629, sequence (whole entry, looked up): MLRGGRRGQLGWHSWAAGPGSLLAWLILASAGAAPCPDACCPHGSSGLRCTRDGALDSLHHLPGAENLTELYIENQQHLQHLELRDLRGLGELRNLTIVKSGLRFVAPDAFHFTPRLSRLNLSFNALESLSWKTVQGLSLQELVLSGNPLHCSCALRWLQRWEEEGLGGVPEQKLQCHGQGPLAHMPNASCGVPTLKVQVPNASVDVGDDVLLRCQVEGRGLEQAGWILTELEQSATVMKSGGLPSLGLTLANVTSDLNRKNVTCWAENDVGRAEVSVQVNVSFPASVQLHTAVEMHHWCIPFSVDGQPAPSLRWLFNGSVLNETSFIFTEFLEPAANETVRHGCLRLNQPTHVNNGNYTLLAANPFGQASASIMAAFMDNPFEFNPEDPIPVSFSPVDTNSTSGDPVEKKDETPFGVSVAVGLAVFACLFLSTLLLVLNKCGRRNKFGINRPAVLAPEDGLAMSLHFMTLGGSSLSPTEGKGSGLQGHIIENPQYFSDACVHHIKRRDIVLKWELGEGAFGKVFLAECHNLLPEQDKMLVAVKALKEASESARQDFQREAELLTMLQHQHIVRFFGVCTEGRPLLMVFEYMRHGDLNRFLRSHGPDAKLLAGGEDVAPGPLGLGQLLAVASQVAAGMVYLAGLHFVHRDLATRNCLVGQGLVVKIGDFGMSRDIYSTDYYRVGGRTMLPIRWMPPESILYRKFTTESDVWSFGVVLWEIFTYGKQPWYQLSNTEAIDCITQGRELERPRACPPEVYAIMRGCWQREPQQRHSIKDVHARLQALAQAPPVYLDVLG
Read-out: enzyme activity
Action: inhibitor
Tested at: 0.5 µM
Relative to: control
| Compound | remaining activity [%] |
| --- | --- |
| COc1cc2ncnc(Nc3ccc(OCc4ccccc4)cc3)c2cc1OC | 97.1 |
| COc1ccc(Cl)cc1NC(=O)Nc1cc(C)nc2ccccc12 | 92.5 |
| CCC(=O)Nc1ccc2ncnc(Nc3cccc(Br)c3)c2c1 | 95.8 |
| CC(C)c1nn(-c2c(Cl)cccc2Cl)c2nc(Cc3ccc(OCCO)cc3)[nH]c(=O)c12 | 89 |
| CN(C)CCCn1cc(C2=C(c3c[nH]c4ccccc34)C(=O)NC2=O)c2ccccc21 | 108 |
| CC(C)[C@H](CO)Nc1nc(Nc2cccc(Cl)c2)c2ncn(C(C)C)c2n1 | 67.3 |
| C[S+]([O-])c1ccc(-c2nc(-c3ccncc3)c(-c3ccc(F)cc3)[nH]2)cc1 (stereo not drawn) | 100 |

Study 4
Host: human
Matrix: microsomes or S9
Tested at: 2 µM
Time: 0.5 h
| Compound | remaining compound [%] |
| --- | --- |
| COc1cc(C2CC(=O)c3cc4c(O)n[nH]c4nc3C2)cc(OC)c1OC (stereo not drawn) | 94.6 |
| CCOC(=O)Cn1c(C(=O)OCC)cc2cc(NS(=O)(=O)c3ccc(OC)c(OC)c3)ccc21 | 0.058 |
| CCOc1ccc2nc(NC(=O)CN(C)S(=O)(=O)c3ccc(Br)s3)sc2c1 | 13.9 |
| CCc1nc(-c2ccncc2)cc2c1sc1ccccc12 | 0.481 |
| Cc1ccc2c(-c3cn4c(C)c(C)sc4n3)c(C)[nH]c2c1 | 52.9 |
| CCN(CC)S(=O)(=O)c1ccc(NC(=O)CN(c2cc(C)ccc2C)S(C)(=O)=O)cc1 | 1.39 |
| COC(=O)c1ccc(S(C)(=O)=O)c(O)c1Cl | > 99 |
| Cc1nc2c(s1)CN(C(=O)CNS(=O)(=O)c1ccc(Oc3ccccc3)cc1)CC2 | 16.4 |
| Cc1ccc2c(c1)Oc1cc(Cl)c(S(=O)(=O)N3CCc4ccccc4C3)cc1C(=O)N2 | 3.83 |
| CC1Cc2ccccc2N1S(=O)(=O)c1ccc2c(c1)c(=O)n(CC(=O)N1CCCC1)c(=O)n2C (stereo not drawn) | 18.1 |
| Cc1nc(C2=C(O)CN(C3CS(=O)(=O)CC3O)C2=N)sc1C (stereo not drawn) | 68.7 |
| O=S(=O)(c1cccc2cccnc12)n1ncc2c(Cl)ncnc21 | 54.3 |
| CCCOc1ccccc1-c1nc2nn[nH]c2c(=O)[nH]1 | 91 |

For quick reference, copied from above (study 4):
| Compound | remaining compound [%] |
| --- | --- |
| Cc1nc2c(s1)CN(C(=O)CNS(=O)(=O)c1ccc(Oc3ccccc3)cc1)CC2 | 16.4 |
| Cc1ccc2c(c1)Oc1cc(Cl)c(S(=O)(=O)N3CCc4ccccc4C3)cc1C(=O)N2 | 3.83 |
| CC1Cc2ccccc2N1S(=O)(=O)c1ccc2c(c1)c(=O)n(CC(=O)N1CCCC1)c(=O)n2C (stereo not drawn) | 18.1 |
| Cc1nc(C2=C(O)CN(C3CS(=O)(=O)CC3O)C2=N)sc1C (stereo not drawn) | 68.7 |
